Published values collected from several papers.
Lines come from different studies, so protocols differ. ± marks the error that the study gave.
Cell line: MCF7

| Structure (SMILES) | test | system | setting | measurement | result |
| --- | --- | --- | --- | --- | --- |
| CCCCn1cc(C(=O)O)c(=O)c2cc(F)c(Nc3ccccc3Cl)c(N)c21 | cell growth or viability, SRB |  |  | IC50 | 58 µM |
| O=C(CCc1ccccc1)NOC(=O)OCc1ccccc1 |  |  | 25 µM | viability | > 98% |
| CC=C(C)C(=O)OC1C(O)C2OC(COC(=O)CCCCCCCCCC(CCCCC)OC3OC(C)C(OC(C)=O)C(O)C3O2)C1OC(=O)C=Cc1ccccc1 (centres unmarked) | cytotoxicity |  |  | IC50 | 0.033 µM |
| N=C(N)NCCC[C@H](NC(=O)[C@@H]1CCCN1C(=O)[C@H](CC(N)=O)NC(=O)[C@H](Cc1ccccc1)NC(=O)[C@H](Cc1c[nH]cn1)NC(=O)[C@H](Cc1ccccc1)NC(=O)[C@H](Cc1ccccc1)NC(=O)Cc1ccc2ccccc2c1)C(=O)O |  | cell lysate | 200 µM, 1 h, together with: bortezomib 100 nM | remaining peptide | 50% |
| CC(C)C[C@@H]1NC(=O)[C@@H](Cc2c[nH]c3ccccc23)NC(=O)[C@H](CCCN)NC(=O)[C@@H](CO)NC(=O)[C@H](CCC(N)=O)NC(=O)[C@@H](CCC(=O)O)NC(=O)[C@H](CO)NC(=O)[C@@H](Cc2c[nH]c3ccccc23)NC1=O | cytotoxicity |  |  | CC50 | > 40 µM |
| CCCCn1cc(C(=O)O)c(=O)c2cc(F)c3c(nnn3-c3ccccc3Cl)c21 | cell growth, SRB |  | 72 h | IC50 | 30.8 ± 4.56 mg/L |
| CCCCCC1CCCCCCC(=O)CCC(=O)OCC2OC(OC3C(O1)OC(C)C(OC(C)=O)C3O)C(O)C(OC(=O)C(C)CC)C2OC(=O)C=Cc1ccccc1 (mixture of isomers) | cytotoxicity |  |  | IC50 | 0.477 µM |
| CC[C@H](C)[C@@H]1NC(=O)[C@H](CCCCN)NC(=O)[C@H](CCCCN)NC(=O)[C@H](Cc2ccc(O)cc2)NC(=O)[C@H](CC(C)C)NC(=O)[C@@H]2CCCN2C(=O)[C@H](C)NC(=O)CNC(=O)CNC(=O)[C@H](CO)NC(=O)CNC(=O)CNC(=O)[C@H](CO)NC(=O)[C@H](CCC(=O)O)NC(=O)[C@H](CC(C)C)NC(=O)[C@H](CC(C)C)NC(=O)[C@H](CCCCN)NC(=O)[C@H](CCCCN)NC(=O)[C@H]([C@@H](C)CC)NC(=O)[C@H]([C@@H](C)CC)NC(=O)[C@H](CCCCN)NC(=O)[C@H](CCCCN)NC(=O)[C@H](Cc2ccc(O)cc2)NC(=O)[C@H](CC(C)C)NC(=O)[C@@H]2CCCN2C(=O)CNC(=O)CNC(=O)CSC[C@@H](C(N)=O)NC(=O)[C@H](CC(C)C)NC(=O)[C@H](CCCCN)NC(=O)[C@H](CCCCN)NC(=O)[C@H]([C@@H](C)CC)NC1=O | cell viability, resazurin |  | 24 h | CC50 | 16.9 ± 0.8 µM |
| CC(C)C[C@@H]1NC(=O)[C@@H](Cc2c[nH]c3ccccc23)NC(=O)[C@H](CCCCN)NC(=O)[C@@H](Cc2c[nH]cn2)NC(=O)[C@H](CO)NC(=O)[C@@H](Cc2c[nH]cn2)NC(=O)[C@H](CCCCN)NC(=O)[C@@H](Cc2c[nH]c3ccccc23)NC1=O | cytotoxicity |  |  | CC50 | 11 µM |
| CCCCCC1CCCCCCC(=O)CCC(=O)OCC2OC(OC3C(O1)OC(C)C(OC(C)=O)C3O)C(O)C(O)C2OC(=O)C=Cc1ccccc1 (centres unmarked) | cytotoxicity |  |  | IC50 | 5.93 µM |
| COc1cc2c(cc1OC)C(=O)C(=Cc1ccc(N3CC[N+](C)(C)CC3)cc1)C2 | cell viability, MTT |  | 48 h | LD50 | 2.21 µM |

Some of these lines once more:
| Structure (SMILES) | test | system | setting | measurement | result |
| --- | --- | --- | --- | --- | --- |
| CC=C(C)C(=O)OC1C(O)C2OC(COC(=O)CCCCCCCCCC(CCCCC)OC3OC(C)C(OC(C)=O)C(O)C3O2)C1OC(=O)C=Cc1ccccc1 (centres unmarked) | cytotoxicity |  |  | IC50 | 0.033 µM |
